Experimental data pooled from the literature.
Every numbered part comes from another study and shows a few of its results, in no order.

Study 1 — method: RNA Bind-n-Seq; molecule type: RNA; sample: in vitro; concentration: 20 nM; notes: 6-mer, flanks averaged, single round; added: 150 mM KCl; baseline: input library; reading: higher = stronger binding
Target: TAR DNA-binding protein 43, full length, His tag (TARDBP, Homo sapiens, UniProt Q13148, residues 1-414)
Sequence | 6-mer enrichment (R)
UAAGAG | 1.05
UUGCAG | 0.84
AAUGGU | 0.888
CGUAAC | 0.623
GGUCUG | 1.46
AGUUCA | 0.579
AGUUGC | 0.763
AGCUUU | 0.589

Study 2 — observed: peptide-MHC binding; molecule type: peptide; concentration: concentration not given
Target: HLA class I histocompatibility antigen, A alpha chain, allele A*80:01 (Homo sapiens, UniProt P04439)
Molecule | binding
VWKQLFPEL | inactive
RLAPEPVYT | inactive
VFTSRIQVI | inactive
RVLTARKTV | inactive
ITAVNRYFK | inactive
AIDDFCLFA | inactive
DEWECTRDD | inactive
LVTGAGSGF | inactive

Study 3 — target: UBE2D3 UBC core domain (UniProt P61077); method: yeast two-hybrid; sample: yeast; notes: mostly zero background; baseline: not given; reading: higher = stronger interaction
B1: RNF208 RING domain (UniProt Q9H0X6); chain SSAAAGEPLECPTCGHSYNVTQRRPRVLSCLHSVCEQCLQILYESCPKYKFISCPTCRRETVLFTDYG
B2: RNF111 RING domain (UniProt Q6ZNA4); chain EGTEEDTEEKCTICLSILEEGEDVRRLPCMHLFHQVCVDQWLITNKKCPICRVDIEAQLPSE
B3: DTX4 RING domain (UniProt Q9Y2E6); chain QKVRHPPDEDCTICMERLTAPSGYKGPQPTVKPDLVGKLSRCGHVYHIYCLVAMYNNGNKDGSLQCPTCKTIYGVKTGTQ
B4: TRAF5 RING domain (UniProt O00463); chain FVERLEERYKCAFCHSVLHNPHQTGCGHRFCQHCILSLRELNTVPICPVDKEVIKSQEVFK
B5: NEURL1 RING domain (UniProt O76050); chain VTPGLGQWSDECTICYEHAVDTVIYTCGHMCLCYACGLRLKKALHACCPICRRPIKDIIKT
B6: TRIM40 RING domain (UniProt Q6P9F5); chain LQKDNQEEGVCPICQESLKEAVSTNCGHLFCRVCLTQHVEKASASGVFCCPLCRKPCSEEVLG
B7: TRIM4 RING domain (UniProt Q9C037); chain EAEDIQEELTCPICLDYFQDPVSIECGHNFCRGCLHRNWAPGGGPFPCPECRHPSAPAALRP
Construct (chain): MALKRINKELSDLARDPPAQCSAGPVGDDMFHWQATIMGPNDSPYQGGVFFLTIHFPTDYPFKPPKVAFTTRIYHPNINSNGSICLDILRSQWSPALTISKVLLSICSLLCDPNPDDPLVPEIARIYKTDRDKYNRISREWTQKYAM
Molecule | lacZ reporter activity
B1 (RNF208 RING domain) | 0
B2 (RNF111 RING domain) | 14700
GAAPGPEAAECLVCSELALLVLFSPCQHRTVCEECARRMKKCIRCQVVVSKKLRPD (MIB2 RING domain (UniProt Q96AX9)) | 0
B3 (DTX4 RING domain) | 0
B4 (TRAF5 RING domain) | 0
QVDKAVFHMQSVKCLKCQEQKRAVLPCQHAALCELCAEGSECPICQPGRAHTLQS (UNK RING domain (UniProt Q9C0B0)) | 0
B5 (NEURL1 RING domain) | 0
B6 (TRIM40 RING domain) | 0
B7 (TRIM4 RING domain) | 0

Single results of other studies
Substance | partner | method | sample | added | endpoint | value
FLOT1 (Homo sapiens, UniProt O75955) | FLOT2 (Homo sapiens, UniProt Q14254) | cross-linking MS | cells | BSPNO | cross-linked residues | K302 to K321

For quick reference, copied from above (study 1):
Sequence | 6-mer enrichment (R)
UAAGAG | 1.05
UUGCAG | 0.84
AAUGGU | 0.888
CGUAAC | 0.623
